Experimental data of several laboratories.
Every numbered part comes from another study and shows a few of its results, in no order.
Chain of UniProt Q9Y2K2 (whole entry, looked up): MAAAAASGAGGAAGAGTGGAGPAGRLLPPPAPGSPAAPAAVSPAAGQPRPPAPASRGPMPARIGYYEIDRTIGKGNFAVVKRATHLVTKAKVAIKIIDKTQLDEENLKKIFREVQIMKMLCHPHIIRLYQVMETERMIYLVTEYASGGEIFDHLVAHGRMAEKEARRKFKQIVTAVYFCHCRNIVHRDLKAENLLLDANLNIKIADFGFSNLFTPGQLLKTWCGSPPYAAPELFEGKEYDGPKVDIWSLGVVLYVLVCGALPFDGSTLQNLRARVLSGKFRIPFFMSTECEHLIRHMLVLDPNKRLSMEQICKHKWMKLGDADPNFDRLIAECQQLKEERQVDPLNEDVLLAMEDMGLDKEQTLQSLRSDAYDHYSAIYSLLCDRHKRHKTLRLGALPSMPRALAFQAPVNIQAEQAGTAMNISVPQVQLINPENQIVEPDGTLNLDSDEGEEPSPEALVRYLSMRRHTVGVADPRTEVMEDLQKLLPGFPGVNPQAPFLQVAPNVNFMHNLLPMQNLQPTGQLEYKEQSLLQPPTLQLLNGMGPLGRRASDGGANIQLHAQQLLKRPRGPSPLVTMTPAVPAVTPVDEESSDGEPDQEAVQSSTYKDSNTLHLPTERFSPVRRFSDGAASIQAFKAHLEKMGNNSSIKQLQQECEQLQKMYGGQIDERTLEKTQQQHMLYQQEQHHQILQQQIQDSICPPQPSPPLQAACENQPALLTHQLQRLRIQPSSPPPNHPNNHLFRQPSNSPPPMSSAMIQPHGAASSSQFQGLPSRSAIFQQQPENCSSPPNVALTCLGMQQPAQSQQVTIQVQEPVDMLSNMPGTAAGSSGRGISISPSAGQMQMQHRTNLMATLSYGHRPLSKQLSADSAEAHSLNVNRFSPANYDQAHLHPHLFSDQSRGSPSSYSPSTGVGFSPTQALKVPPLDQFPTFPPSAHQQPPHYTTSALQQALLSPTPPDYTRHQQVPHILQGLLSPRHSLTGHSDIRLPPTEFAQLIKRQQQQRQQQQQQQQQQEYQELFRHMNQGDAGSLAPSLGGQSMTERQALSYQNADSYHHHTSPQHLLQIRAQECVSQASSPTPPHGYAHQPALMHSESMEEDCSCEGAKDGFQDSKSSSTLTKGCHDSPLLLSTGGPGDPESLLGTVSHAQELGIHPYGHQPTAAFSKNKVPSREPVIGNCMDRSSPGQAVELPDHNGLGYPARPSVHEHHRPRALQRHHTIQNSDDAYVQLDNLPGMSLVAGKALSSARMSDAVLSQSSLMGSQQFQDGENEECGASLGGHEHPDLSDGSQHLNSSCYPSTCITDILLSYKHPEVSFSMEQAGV
Chain of UniProt Q15569 (whole entry, looked up): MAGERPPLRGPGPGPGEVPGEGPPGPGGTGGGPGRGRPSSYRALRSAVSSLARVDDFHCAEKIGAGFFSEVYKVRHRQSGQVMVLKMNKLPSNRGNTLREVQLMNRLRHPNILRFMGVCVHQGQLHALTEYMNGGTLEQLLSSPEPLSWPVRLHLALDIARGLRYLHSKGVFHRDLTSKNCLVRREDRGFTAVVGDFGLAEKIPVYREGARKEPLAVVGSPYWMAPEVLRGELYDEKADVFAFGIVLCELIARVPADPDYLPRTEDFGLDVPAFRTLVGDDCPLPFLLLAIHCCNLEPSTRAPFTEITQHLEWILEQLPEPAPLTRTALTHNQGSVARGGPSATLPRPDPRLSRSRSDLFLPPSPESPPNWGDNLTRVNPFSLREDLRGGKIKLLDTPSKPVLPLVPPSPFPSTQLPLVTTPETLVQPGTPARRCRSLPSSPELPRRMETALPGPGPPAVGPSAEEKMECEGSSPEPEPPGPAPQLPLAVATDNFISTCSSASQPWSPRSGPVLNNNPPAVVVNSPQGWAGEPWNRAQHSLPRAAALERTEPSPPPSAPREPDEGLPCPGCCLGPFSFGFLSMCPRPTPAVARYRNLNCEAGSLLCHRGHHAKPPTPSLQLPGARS
Chain of UniProt Q96SB4 (whole entry, looked up): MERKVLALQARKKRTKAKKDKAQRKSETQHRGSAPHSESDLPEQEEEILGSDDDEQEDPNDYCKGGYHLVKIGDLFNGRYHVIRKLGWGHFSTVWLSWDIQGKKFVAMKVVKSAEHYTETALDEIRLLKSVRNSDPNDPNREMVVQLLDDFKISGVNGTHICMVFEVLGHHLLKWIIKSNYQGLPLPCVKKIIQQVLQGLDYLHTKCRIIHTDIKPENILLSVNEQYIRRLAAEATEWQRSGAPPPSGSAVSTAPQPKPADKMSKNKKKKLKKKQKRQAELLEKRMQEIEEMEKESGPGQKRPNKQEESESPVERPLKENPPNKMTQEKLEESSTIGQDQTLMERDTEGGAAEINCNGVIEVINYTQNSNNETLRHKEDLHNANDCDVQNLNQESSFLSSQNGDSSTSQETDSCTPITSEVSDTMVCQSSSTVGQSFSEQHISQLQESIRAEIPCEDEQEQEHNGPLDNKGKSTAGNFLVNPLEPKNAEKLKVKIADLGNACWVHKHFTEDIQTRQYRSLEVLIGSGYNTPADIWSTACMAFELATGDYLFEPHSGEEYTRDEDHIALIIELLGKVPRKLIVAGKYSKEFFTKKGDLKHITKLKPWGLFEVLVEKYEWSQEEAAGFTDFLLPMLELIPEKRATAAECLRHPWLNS
Chain of UniProt P07333 (whole entry, looked up): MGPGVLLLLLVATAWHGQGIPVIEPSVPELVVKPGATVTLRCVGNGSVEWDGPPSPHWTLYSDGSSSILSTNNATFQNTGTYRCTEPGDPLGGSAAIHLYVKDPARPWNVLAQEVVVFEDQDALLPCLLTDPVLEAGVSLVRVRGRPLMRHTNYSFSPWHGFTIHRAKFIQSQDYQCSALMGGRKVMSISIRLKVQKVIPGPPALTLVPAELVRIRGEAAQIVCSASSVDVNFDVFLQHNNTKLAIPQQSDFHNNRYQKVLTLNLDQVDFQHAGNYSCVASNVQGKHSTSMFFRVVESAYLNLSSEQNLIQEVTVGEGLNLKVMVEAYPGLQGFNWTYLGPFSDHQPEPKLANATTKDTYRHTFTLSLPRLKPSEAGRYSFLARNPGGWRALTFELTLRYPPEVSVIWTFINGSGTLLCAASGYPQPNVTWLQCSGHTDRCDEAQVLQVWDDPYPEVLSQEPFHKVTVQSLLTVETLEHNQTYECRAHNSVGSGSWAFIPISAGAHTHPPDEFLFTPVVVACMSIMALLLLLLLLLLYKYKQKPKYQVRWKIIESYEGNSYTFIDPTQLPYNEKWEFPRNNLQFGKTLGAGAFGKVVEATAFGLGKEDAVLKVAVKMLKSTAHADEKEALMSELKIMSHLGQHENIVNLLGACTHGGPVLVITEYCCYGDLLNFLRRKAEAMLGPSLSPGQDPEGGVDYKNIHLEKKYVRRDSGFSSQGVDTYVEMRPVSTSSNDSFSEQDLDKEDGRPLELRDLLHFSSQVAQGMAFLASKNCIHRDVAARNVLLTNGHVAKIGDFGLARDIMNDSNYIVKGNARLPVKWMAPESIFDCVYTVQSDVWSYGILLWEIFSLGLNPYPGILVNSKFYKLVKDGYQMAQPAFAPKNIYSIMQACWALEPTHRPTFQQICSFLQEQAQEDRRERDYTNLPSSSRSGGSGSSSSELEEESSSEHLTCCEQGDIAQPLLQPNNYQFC
Chain of UniProt Q96J92 (whole entry, looked up): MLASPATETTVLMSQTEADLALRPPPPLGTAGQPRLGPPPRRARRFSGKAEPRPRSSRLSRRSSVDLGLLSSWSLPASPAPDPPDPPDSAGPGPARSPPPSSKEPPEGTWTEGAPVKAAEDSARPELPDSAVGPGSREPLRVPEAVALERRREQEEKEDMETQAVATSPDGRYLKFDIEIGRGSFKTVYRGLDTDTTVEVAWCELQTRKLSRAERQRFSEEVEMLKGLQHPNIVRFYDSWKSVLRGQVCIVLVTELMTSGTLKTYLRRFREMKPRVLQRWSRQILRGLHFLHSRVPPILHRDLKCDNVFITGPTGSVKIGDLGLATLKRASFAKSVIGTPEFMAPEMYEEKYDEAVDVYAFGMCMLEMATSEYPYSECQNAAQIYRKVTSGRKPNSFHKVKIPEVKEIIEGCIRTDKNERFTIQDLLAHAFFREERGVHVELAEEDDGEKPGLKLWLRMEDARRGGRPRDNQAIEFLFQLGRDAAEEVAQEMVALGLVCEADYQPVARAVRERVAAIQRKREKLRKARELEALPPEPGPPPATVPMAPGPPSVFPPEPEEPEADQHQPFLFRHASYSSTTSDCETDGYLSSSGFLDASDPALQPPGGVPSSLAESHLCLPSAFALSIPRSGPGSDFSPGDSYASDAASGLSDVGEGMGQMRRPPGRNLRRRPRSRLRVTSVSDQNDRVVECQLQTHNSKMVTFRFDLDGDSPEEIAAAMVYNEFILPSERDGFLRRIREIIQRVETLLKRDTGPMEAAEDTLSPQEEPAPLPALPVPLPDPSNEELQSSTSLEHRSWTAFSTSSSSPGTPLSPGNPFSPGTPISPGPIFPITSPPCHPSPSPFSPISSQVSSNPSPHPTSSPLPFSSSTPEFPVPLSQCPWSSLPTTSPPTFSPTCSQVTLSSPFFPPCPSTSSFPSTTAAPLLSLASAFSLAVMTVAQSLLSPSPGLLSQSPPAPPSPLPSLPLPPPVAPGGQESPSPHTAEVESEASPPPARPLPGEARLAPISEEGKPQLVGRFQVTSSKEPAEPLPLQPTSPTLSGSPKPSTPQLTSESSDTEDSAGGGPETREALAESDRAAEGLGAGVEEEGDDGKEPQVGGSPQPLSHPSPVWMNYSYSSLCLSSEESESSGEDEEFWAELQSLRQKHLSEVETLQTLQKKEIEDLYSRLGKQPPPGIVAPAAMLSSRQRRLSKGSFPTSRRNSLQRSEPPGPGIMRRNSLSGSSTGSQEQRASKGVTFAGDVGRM

Sample 1
Compound: N#CC1(c2ccccn2)CCN(Cc2cc(C(=O)O)c(=O)n3ccccc23)CC1
Observed: cell-free assay
Technique: competition with immobilised ligand
Tested at: 1 µM
It gave 75% for remaining binding (WNK4 (Homo sapiens, UniProt Q96J92)).
The remaining binding was 90% (MAP3K7 (Homo sapiens, UniProt O43318)).
SRC (Homo sapiens, UniProt P12931) — remaining binding: 100%.
It gave 95% for remaining binding (BMP2K (Homo sapiens, UniProt Q9NSY1)).
For EGFR (Homo sapiens, UniProt P00533, del746-750): remaining binding read 100%.
The remaining binding was 90% (EGFR (Homo sapiens, UniProt P00533, G719S)).
For MYLK2 (Homo sapiens, UniProt Q9H1R3): remaining binding read 94%.
It gave 97% for remaining binding (SIK3 (Homo sapiens, UniProt Q9Y2K2)).
TESK1 (Homo sapiens, UniProt Q15569) — remaining binding: 100%.
For FLT3 (Homo sapiens, UniProt P36888, ITD): remaining binding read 92%.
CDKL2 (Homo sapiens, UniProt Q92772) — remaining binding: 100%.
It gave 100% for remaining binding (Macrophage colony-stimulating factor 1 receptor, autoinhibited (CSF1R, Homo sapiens, UniProt P07333)).
It gave 100% for remaining binding (PIK3CA (Homo sapiens, UniProt P42336, E545A)).
It gave 100% for remaining binding (SRPK1 (Homo sapiens, UniProt Q96SB4)).
The remaining binding was 100% (Aurora kinase A (AURKA, Homo sapiens, UniProt O14965)).

Sample 2
Cell line: HEK-293T/ACE2
Tested at: 10 µM
Time: 16 h
Reference: vehicle
The viability of `NS(=O)(=O)c1cc2c(cc1Cl)NCNS2(=O)=O` is reported as 102%.
The viability of `O=c1[nH]c(=O)n([C@H]2C[C@H](O)[C@@H](CO)O2)cc1C(F)(F)F` is reported as 75.1%.
`O=C(O)Cc1ccccc1Nc1c(Cl)cccc1Cl` gave a viability of 103%.

Sample 3
Organism: Sarcocystis neurona
Observed: parasite growth
Tested at: 10 µM
The inhibition of `CCOC(=O)C1(c2ccccc2)CCN(CCC(C#N)(c2ccccc2)c2ccccc2)CC1` is reported as 9.1%.
`COc1cc2c(cc1OC)[C@@]13CCN4CC5=CCO[C@H]6CC(=O)N2[C@H]1[C@H]6[C@H]5C[C@H]43` gave an inhibition of 7.4%.
For `C[C@]12Cc3c[nH]nc3C[C@@H]1CC[C@@H]1[C@@H]2CC[C@@]2(C)[C@H]1CC[C@]2(C)O`, the inhibition was 10.2%.
`NCCc1ccccn1` has an inhibition of 9.4%.

Sample 4
Target: UBE2D4 UBC core domain (UniProt Q9Y2X8)
Technique: yeast two-hybrid
Matrix: yeast
Notes: mostly zero background
Reference: not given
Direction: higher = stronger interaction
B1: TRIM48 RING domain (UniProt Q8IWZ4); chain ISQVFQRELTCPICMNYFIDPVTIDCGHSFCRPCFYLNWQDIPILTQCFECIKTIQQRNLKT
B2: DTX1 RING domain (UniProt Q86Y01); chain QKVKNPPDEDCTICMERLVTASGYEGVLRHKGVRPELVGRLGRCGHMYHLLCLVAMYSNGNKDGSLQCPTCKAIYGEKTGTQ
B3: ZNRF3 RING domain (UniProt Q9ULT6); chain DTLSSSSTSDCAICLEKYIDGEELRVIPCTHRFHRKCVDPWLLQHHTCPHCRHNIIEQKGNP
B4: TRIM22 RING domain (UniProt Q8IYM9); chain KEVKMSPQEGQKRDVCEHHGKKLQIFCKEDGKVICWVCELSQEHQGHQTFRINEVVKECQEK
Target sequence (chain): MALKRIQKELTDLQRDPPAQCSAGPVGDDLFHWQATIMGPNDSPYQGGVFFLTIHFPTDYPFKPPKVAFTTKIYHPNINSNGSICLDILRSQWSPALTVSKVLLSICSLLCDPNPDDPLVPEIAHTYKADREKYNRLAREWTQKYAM
Under “lacZ reporter activity”, `B1 (TRIM48 RING domain)` is recorded as 0.
For `NTAPSLTVPECAICLQTCVHPVSLPCKHVFCYLCVKGASWLGKRCALCRQEIPEDFLDK (RNF146 RING domain (UniProt Q9NTX7))`, “lacZ reporter activity” read 0.
`B2 (DTX1 RING domain)` — result for “lacZ reporter activity”: 11800.
For `B3 (ZNRF3 RING domain)`, “lacZ reporter activity” read 0.
Under “lacZ reporter activity”, `KLWDINAHITCRLCSGYLIDATTVTECLHTFCRSCLVKYLEENNTCPTCRIVIHQSHPLQ (PCGF3 RING domain (UniProt Q3KNV8))` is recorded as 0.
Under “lacZ reporter activity”, `ALDRLEKLLRCSRCTNILREPVCLGGCEHIFCSNCVSDCIGTGCPVCYTPAWIQDLKI (BARD1 RING domain (UniProt Q99728))` is recorded as 0.
`QLRRLQEERTCKVCLDRAVSIVFVPCGHLVCAECAPGLQLCPICRAPVRSRVRTF (BIRC7 RING domain (UniProt Q96CA5))` — result for “lacZ reporter activity”: 0.
`B4 (TRIM22 RING domain)` — result for “lacZ reporter activity”: 0.

Other studies, line by line
Under “nuclear SOX9 intensity”, `CN1CCN(C(=O)O[C@H]2c3nccnc3C(=O)N2c2ccc(Cl)cn2)CC1` is recorded as 101 % of DMSO (mouse MPNST tumor cells; high-content immunofluorescence imaging, refers to: nuclear SOX9; 10 µM, 12 h, mean of 2 replicates; reference: DMSO control, higher = more nuclear SOX9).
